# Measured values collected from several papers.
# ± marks the error that the study gave.
# Method: steady-state kinetics
# B1: ycjQ (Escherichia coli, UniProt P76043); chain MKKLVATAPRVAALVEYEDRAILANEVKIRVRFGAPKHGTEVVDFRAASPFIDEDFNGEWQMFTPRPADAPRGIEFGKFQLGNMVVGDIIECGSDVTDYAVGDSVCGYGPLSETVIINAVNNYKLRKMPQGSSWKNAVCYDPAQFAMSGVRDANVRVGDFVVVVGLGAIGQIAIQLAKRAGASVVIGVDPIAHRCDIARRHGADFCLNPIGTDVGKEIKTLTGKQGADVIIETSGYADALQSALRGLAYGGTISYVAFAKPFAEGFNLGREAHFNNAKIVFSRACSEPNPDYPRWSRKRIEETCWELLMNGYLNCEDLIDPVVTFANSPESYMQYVDQHPEQSIKMGVTF
# B2: enzyme (Arabidopsis thaliana, UniProt Q9LTH3); chain MEELGVKRRIVLVPVPAQGHVTPIMQLGKALYSKGFSITVVLTQYNRVSSSKDFSDFHFLTIPGSLTESDLKNLGPFKFLFKLNQICEASFKQCIGQLLQEQGNDIACVVYDEYMYFSQAAVKEFQLPSVLFSTTSATAFVCRSVLSRVNAESFLLDMKDPKVSDKEFPGLHPLRYKDLPTSAFGPLESILKVYSETVNIRTASAVIINSTSCLESSSLAWLQKQLQVPVYPIGPLHIAASAPSSLLEEDRSCLEWLNKQKIGSVIYISLGSLALMETKDMLEMAWGLRNSNQPFLWVIRPGSIPGSEWTESLPEEFSRLVSERGYIVKWAPQIEVLRHPAVGGFWSHCGWNSTLESIGEGVPMICRPFTGDQKVNARYLERVWRIGVQLEGELDKGTVERAVERLIMDEEGAEMRKRVINLKEKLQASVKSRGSSFSSLDNFVNSLKMMNFM
# B3: BshA Y95F (Bacillus subtilis, UniProt P42982); chain MRKLKIGITCYPSVGGSGIIATELGKQLAEKGHEIHFITSSIPFRLNTYHPNIHFHEVEVNQYAVFKYPPYDLTLASKIAEVAERENLDIIHAHFALPHAVCAYLAKQMLKRNIGIVTTLHGTDITVLGYDPSLKDLIRFAIESSDRVTAVSSALAAETYDLIKPEKKIETIYNFIDERVYLKKNTAAIKEKHGILPDEKVVIHVSNFRKVKRVQDVIRVFRNIAGKTKAKLLLVGDGPEKSTACELIRKYGLEDQVLMLGNQDRVEDLYSISDLKLLLSEKESFGLVLLEAMACGVPCIGTNIGGIPEVIKNNVSGFLVDVGDVTAATARAMSILEDEQLSNRFTKAAIEMLENEFSSKKIVSQYEQIYADLAEPE
# B4: enzyme (Triticum aestivum, UniProt A0A6J4BJM5); chain MPATQLPAGEAWDRRRELQAFDDTKAGVKGLVDAGVTALPPIFRHSPESLEGITSSNHVTGAIPTVDLSAARREDTVALVRRAAGTVGFFQVVNHGVPAELMAGMLEGVRRFNEGPAEAKQAIYSRDQARKVRFASNFDLFSSAAANWRDTLFFHLAPDPAPSQELPEAVRDVVTEYGKAVTKVALSVLELLSESLGLSSDHLRDMGCAENLNAVCQYYPPCPEPYLTWGTKRHTDPGFLTVLLQDGMGGLQVLVDHKTWVDVPPVPGAFIINIGDLLQLVSNDQFRSVEHRVLANKSKDTARVSVASFFNTDMERSTRLYGPITDGRNPPIYRSVTARDFIATFNRIGLDGRSLDHYRLDQHTPTPAVEGCE
# B5: HCT R356D (Coleus scutellarioides, UniProt E8ZAP2); chain MKIHVRDSTLVRPSAATPAVSLWNSNVDLVVPNFHTPSVYFYRPSGADNFFDTAVMKAALGRALVSFYPMAGRLKRDEDGRVEIDCNAEGVLFVEAESDGTVDDYGDFAPSLELRRLIPAVDYSQGISAYPLLVLQVTFFKCGGVSLGVGMQHHAADGFSGLHFINTWSDMARGLDITLPPFIDRTLLSARDPPQPQFKHVEYQPPPAMKTYEPAETVVSIFKLTKDQLTTLKAKSKEDGNTTTYSSYEMLSGHVWRCTCLARGLPEEQETKLYIATDGRSRLQPQLPPGYFGNVIFTATPLAVAGDLGSKPVWYAASKIHDALARMDNDYLRSALDFLELQPDLKALVRGAHTFDCPNLGITSWVRLPIHDADFGWGRPIFMGPGGIAYEGLSFVLPSPTNDGSLSVAISLQAEHMKLFEKLLYQI
# B6: PTR1 (Leishmania major, UniProt Q01782); chain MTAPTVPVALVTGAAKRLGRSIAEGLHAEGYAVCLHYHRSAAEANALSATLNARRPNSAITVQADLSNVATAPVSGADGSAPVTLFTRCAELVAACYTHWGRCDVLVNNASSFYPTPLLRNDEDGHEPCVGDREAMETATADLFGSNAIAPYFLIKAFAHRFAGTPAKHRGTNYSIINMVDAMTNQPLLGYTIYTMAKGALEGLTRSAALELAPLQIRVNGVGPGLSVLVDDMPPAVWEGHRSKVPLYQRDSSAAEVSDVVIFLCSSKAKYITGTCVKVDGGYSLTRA
# B7: DdmC (Stenotrophomonas maltophilia, UniProt Q5S3I3); chain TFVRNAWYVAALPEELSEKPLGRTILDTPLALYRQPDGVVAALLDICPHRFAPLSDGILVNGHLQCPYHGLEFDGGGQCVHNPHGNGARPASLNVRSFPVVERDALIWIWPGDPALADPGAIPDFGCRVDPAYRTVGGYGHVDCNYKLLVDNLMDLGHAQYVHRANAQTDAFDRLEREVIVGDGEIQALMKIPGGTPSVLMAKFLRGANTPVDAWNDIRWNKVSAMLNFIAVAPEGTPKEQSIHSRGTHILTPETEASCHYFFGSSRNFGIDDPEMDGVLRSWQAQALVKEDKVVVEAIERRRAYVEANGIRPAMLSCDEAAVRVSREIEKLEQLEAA
# B8: FNO G29L (Thermobifida fusca, UniProt Q47RA9); chain MIMIMASKSSPHDLPDVSGLSIAVLGGTLDQGRGLARRFAMAGHEVILGSRSAERAQAVAAELGEGLPVRGMDNAGAAEAGDVVIVAVPWDGHRALLESLKDVLAGKIVVDCVNPLGFDKRGAYALPVEEGSAAEQAAAILPDSRVVAAFHHVSAVLLLDPEVEKVDLDVLVLGDDREATDVVRALAARIPGVRGVYGGRLRNAHQVEAFTANLISINRRYKAHAGIRITDI
# B9: protein Y93P (Thermus thermophilus, UniProt Q5SKR5); chain MSAPKPFVIGIAGGTASGKTTLAQALARTLGERVALLPMDHYYKDLGHLPLEERLRVNYDHPDAFDLALYLEHAQALLRGLPVEMPVYDFRAPTRSPRRTPVRPAPVVILEGILVLYPKELRDLMDLKVFVDADADERFIRRLKRDVLERGRSLEGVVAQYLEQVKPMHLHFVEPTKRYADVIVPRGGQNPVALEMLAAKALARLARMGAA
# B10: cyc1 F332A (Streptomyces coelicolor, UniProt Q9K499); chain MHAFPHGTTATPTAIAVPPSLRLPVIEAAFPRQLHPYWPKLQETTRTWLLEKRLMPADKVEEYADGLCYTDLMAGYYLGAPDEVLQAIADYSAWFFVWDDRHDRDIVHGRAGAWRRLRGLLHTALDSPGDHLHHEDTLVAGFADSVRRLYAFLPATWNARFARHFHTVIEAYDREFHNRTRGIVPGVEEYLELRRLTFAHWIWTDLLEPSSGCELPDAVRKHPAYRRAALLSQEFAAWYNDLCSLPKEIAGDEVHNLGISLITHHSLTLEEAIGEVRRRVEECITEFLAVERDALRFADELADGTVRGKELSGAVRANVGNMRNWFSSVYWAHHESGRYMVDSWDDRSTPPYVNNEAAGEK
# B11: protein (Stereum hirsutum, UniProt P9WEW1); chain MVRSPVSDKFCIPDTLASWPYPRILNPHYAEEKAASAAWTKGFGAFGPKAQDAFDRCDFNLLACLAYPIATPERCRSGCDLMNLFFVIDEHSDTHGEETVRKMKDVVMDAIRNPHKPRPNDEWIGGEIARQFWERAMCYASEISQRRFIDTFDEYLESVVDQAADRDSARIRDIESYINIRRNTIGAKPSFVIMEQGMDIPDNVFENEVFQRLRMATIDMLCLGNDIVSYNIEQARGDDSHNIVRIVMNELDTDVPRAMDWVAQRHTQLEREFFTALSELPTWGEPIDGWVKEYVYGLGNWVRANDQWSFESQRYFGTKGMEIMKSRWLSVLPKVRPAEVGPQLVDQSLL
# Sequence of UniProt P00433 (whole entry, looked up): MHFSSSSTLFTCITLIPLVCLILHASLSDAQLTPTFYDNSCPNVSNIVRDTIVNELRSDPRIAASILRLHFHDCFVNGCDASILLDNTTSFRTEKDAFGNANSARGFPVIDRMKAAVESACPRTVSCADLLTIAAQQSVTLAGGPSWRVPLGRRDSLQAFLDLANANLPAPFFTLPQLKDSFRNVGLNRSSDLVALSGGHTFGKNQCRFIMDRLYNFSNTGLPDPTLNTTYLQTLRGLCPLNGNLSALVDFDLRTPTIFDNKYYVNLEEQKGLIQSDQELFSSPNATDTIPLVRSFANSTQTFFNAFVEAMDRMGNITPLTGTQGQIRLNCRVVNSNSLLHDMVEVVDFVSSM
Molecule,substrate,setting,kcat/Km
B1 (ycjQ),CO[C@@H]1O[C@H](CO)[C@H](O)C(=O)[C@H]1O,"pH 7, 30 °C, with: NADH 0.3 mM, MnCl2 0.5 mM",3100 ± 200 M⁻¹ s⁻¹
B2 (enzyme),O=c1ccn([C@@H]2O[C@H](CO[P@@](=O)(O)O[P@@](=O)(O)O[C@H]3O[C@H](CO)[C@@H](O)[C@H](O)[C@H]3O)[C@@H](O)[C@H]2O)c(=O)[nH]1,"pH 7.5, 25 °C",790 M⁻¹ s⁻¹
B3 (BshA Y95F),CC(=O)N[C@H]1[C@@H](OP(=O)(O)OP(=O)(O)OC[C@H]2O[C@@H](n3ccc(=O)[nH]c3=O)[C@H](O)[C@@H]2O)O[C@H](CO)[C@@H](O)[C@@H]1O,"pH 7.5, 21 °C, with: malate 0–25 mM",2600 M⁻¹ s⁻¹
B4 (enzyme),O=C1[C@@H](O[C@@H]2O[C@H](CO)[C@@H](O)[C@H](O)[C@H]2O)Oc2ccccc2N1O,"pH 7.2, 30 °C",2000 M⁻¹ s⁻¹
"Ptb (Listeria monocytogenes, UniProt Q8Y7B7)",CCC(CC)C(=O)SCCNC(=O)CCNC(=O)[C@H](O)C(C)(C)COP(=O)(O)OP(=O)(O)OC[C@H]1O[C@@H](n2cnc3c(N)ncnc32)[C@H](O)[C@@H]1OP(=O)(O)O,"pH 7.5, 25 °C, apparent",2.3e+06 M⁻¹ s⁻¹
B5 (HCT R356D),NCCc1ccc(O)c(O)c1,"pH 8, pseudo-first-order, with: p-coumaroyl CoA",29.1 ± 1.4 M⁻¹ s⁻¹
B6 (PTR1),C[C@H](O)[C@H](O)C1=Nc2c(nc(N)[nH]c2=O)NC1,"pH 7.4, 25 °C, apparent",170000 M⁻¹ s⁻¹
"protein (Zea mays, UniProt A0A2H4PMI3)",O=CCCCC(=O)O,"pH 7.5, 30 °C, substrate inhibition, with: NAD+ 3.0 mM",23000 ± 4000 M⁻¹ s⁻¹
B7 (DdmC),COc1c(Cl)ccc(Cl)c1C(=O)O,"apparent, with: NADH 1 mM",2300 ± 410 M⁻¹ s⁻¹
B8 (FNO G29L),CCC[n+]1cccc(C(N)=O)c1,"pH 8, 25 °C, with: F420H2 40 µM",0.33 ± 0.16 M⁻¹ s⁻¹
B9 (protein Y93P),Nc1ccn([C@@H]2O[C@H](CO)[C@@H](O)[C@H]2O)c(=O)n1,"pH 7.2, 25 °C, KCl 100 mM, with: ATP 100–200 µM",8300 M⁻¹ s⁻¹
"alanine aminopeptidase (Neisseria meningitidis, UniProt Q9JYV4)",C[C@H](N)C(=O)Nc1ccc2c(CC(N)=O)cc(=O)oc2c1,"pH 7.5, 37 °C",163000 ± 3000 M⁻¹ s⁻¹
"PRXC1A (Armoracia rusticana, UniProt P00433)",CCn1c(=NN=c2sc3cc(S(=O)(=O)O)ccc3n2CC)sc2cc(S(=O)(=O)O)ccc21,apparent,1.44e+06 M⁻¹ s⁻¹
enzyme (UniProt A0A7J5BGR1),C=CCc1ccc(O)c(OC)c1,"pH 8, 25 °C",73600 M⁻¹ s⁻¹
B10 (cyc1 F332A),CC(C)=CCC/C(C)=C/CC/C(C)=C/CO[P@@](=O)(O)OP(=O)(O)O,"pH 6.5, 30 °C, with: MgCl2 10 mM",290 ± 80 M⁻¹ s⁻¹
B11 (protein),CC(C)=CCC/C(C)=C/CC/C(C)=C/CO[P@@](=O)(O)OP(=O)(O)O,"pH 8, NaCl 200 mM, with: FPP 1–100 µM",1950 ± 150 M⁻¹ s⁻¹

# A few entries again:
Molecule,substrate,setting,kcat/Km
B5 (HCT R356D),NCCc1ccc(O)c(O)c1,"pH 8, pseudo-first-order, with: p-coumaroyl CoA",29.1 ± 1.4 M⁻¹ s⁻¹
B7 (DdmC),COc1c(Cl)ccc(Cl)c1C(=O)O,"apparent, with: NADH 1 mM",2300 ± 410 M⁻¹ s⁻¹
